Results from different studies.
Lines come from different studies, so protocols differ. Several values in a cell are separate wells, animals, samples, runs or records.
Target: Fibroblast growth factor receptor 4 (FGFR4, Homo sapiens, UniProt P22455)

SMILES = CNC(=O)C[C@H](Cc1ccc(C#N)cc1)NC(=O)c1cc(-c2ccc(CN[C@H](C)c3ccc(C)cc3)o2)ccc1Cl; assay = enzyme activity, inhibitor; setting = 1 µM; endpoint = activity vs control; result = 108%
SMILES = C=CC(=O)N1Cc2nc(-c3cc(-c4cc(Cl)cnc4Cl)c(F)cc3F)n(-c3ccncn3)c2C1; assay = cell-free assay; setting = 1 µM; endpoint = inhibition; result = 4.2%
SMILES = CNC1C[S+]2CC[S+]3CC[S+](C1)[Ru-4]321([N]=C=S)[n]2c3ccc(OC)cc3c3c4c(c5cc(F)c[n+]1c5c32)C(=O)NC4=O (centres unmarked); assay = KinomeScan; setting = 0.1 µM; scale = reference: untreated; endpoint = remaining binding; result = 100%
SMILES = O=C(Cc1ccc(OCc2ccccc2)cc1)NC1(C(=O)O)CCN(C(=O)c2ccc(-c3cccc(Cl)c3)cc2)CC1; assay = enzyme activity, inhibitor; setting = 10 µM; endpoint = activity vs control; result = 145%
SMILES = COc1cc(Nc2nccc(-c3cnn4nc(OC)ccc34)n2)cc(C(F)(F)F)c1; assay = binding, competition with immobilised ligand; setting = 1 µM; endpoint = remaining binding; result = 86%
SMILES = CCN1CCN(Cc2ccc(C(=O)Nc3ccc(C)c(NCc4cnc5[nH]ccc5c4OC)c3)cc2C(F)(F)F)CC1; assay = binding, competition with immobilised ligand; setting = 1 µM; endpoint = remaining binding; result = 15%
SMILES = Nc1ncc(-c2cc(-c3cnn(CC(F)(F)F)c3)ncc2F)nc1C(=O)NC1CNCC(F)C1 (centres unmarked); assay = enzyme activity; setting = 1 µM; scale = reference: DMSO control; endpoint = remaining activity; result = 104%
SMILES = C=CC(=O)Nc1cccc(-c2cnc3[nH]cc(C(=O)NC(C)(C)C)c3n2)c1; assay = kinase activity; setting = 0.1 µM; endpoint = inhibition; result = 5% and 16%
SMILES = NC(=O)[C@@H](O)C[C@H]1CCc2sc3ncnc(O[C@H]4CC[C@H](N5CCOCC5)CC4)c3c21; assay = enzyme activity, inhibitor; setting = 10 µM; endpoint = inhibition; result = 3%
SMILES = Cc1cccc(O[C@H]2CCC[C@@H](C(C)CNCc3ccncc3)C2)c1 (relative stereo); assay = cell-free assay; setting = 1 µM; endpoint = inhibition; result = 14%
SMILES = CN1CCN(c2ccc(Nc3ncc(Cl)c(Nc4ccccc4P(C)(C)=O)n3)cc2Br)CC1; assay = enzyme activity, inhibitor; setting = 0.1 µM; endpoint = inhibition; result = 30.1%
SMILES = CC(C)=CC1OC(C)(C)C2C=C3C(=O)C(Cl)=CC(O)C3C3C(O)C4OC4C(=O)C132 (centres unmarked); assay = cell-free assay, competition with immobilised ligand; setting = 10 µM; endpoint = remaining binding; result = 92%
SMILES = COCC12C(=O)NC3C4(C(OC)CC1O)C1CC5(O)C(OC)C(O)C(OC(C)=O)(C1C5OC(=O)c1ccccc1)C3(O)C(OC)C24 (centres unmarked); assay = kinase activity, inhibitor, ProQinase kinase profiling; setting = 25 µM; scale = reference: control; endpoint = remaining activity; result = 99% and 98%
SMILES = Cc1cnc2nc1Nc1cccc(c1)COC/C=C/COCc1cc(ccc1OCCN1CCOCC1)N2; assay = binding; setting = 0.1 µM; endpoint = remaining binding; result = 100%
SMILES = C[C@H]1CN(C(=O)c2cn(-c3ccnc(N)n3)c3cc(C#CC4(O)CCCCC4)ccc23)CCN1; assay = enzyme activity, inhibitor, FRET; setting = 1 µM; endpoint = inhibition; result = -11%
SMILES = Cc1nc2c(F)cc(-c3nc(Nc4ccc(CNC(=O)CCCCCCC(=O)NO)cc4)ncc3F)cc2n1C(C)C; assay = enzyme activity, inhibitor; setting = 1 µM; endpoint = inhibition; result = 2%
SMILES = CCn1cc(C(=O)O)c(=O)c2c(N)c(F)c(NC3CCCCC3)cc21; assay = kinase activity; setting = 0.1 µM, together with: ATP at Km; endpoint = inhibition; result = 2.9%

Excerpt of the above:
SMILES = COc1cc(Nc2nccc(-c3cnn4nc(OC)ccc34)n2)cc(C(F)(F)F)c1; assay = binding, competition with immobilised ligand; setting = 1 µM; endpoint = remaining binding; result = 86%
SMILES = CCN1CCN(Cc2ccc(C(=O)Nc3ccc(C)c(NCc4cnc5[nH]ccc5c4OC)c3)cc2C(F)(F)F)CC1; assay = binding, competition with immobilised ligand; setting = 1 µM; endpoint = remaining binding; result = 15%
